Measurements from different studies.
Parts stem from different laboratories: compare values within a part only.

Set 1
Target: Histone acetyltransferase KAT6A, both winged helices, GST fusion (KAT6A, Homo sapiens, UniProt Q92794, residues 1-181)
Technique: protein binding microarray
Form: double-stranded DNA, one strand shown
Medium: in vitro
Tested at: not given
Notes: 8-mer, flanks averaged, mean of 2 arrays, mostly near background
Reference: not given
Direction: higher = stronger binding
Target sequence (chain): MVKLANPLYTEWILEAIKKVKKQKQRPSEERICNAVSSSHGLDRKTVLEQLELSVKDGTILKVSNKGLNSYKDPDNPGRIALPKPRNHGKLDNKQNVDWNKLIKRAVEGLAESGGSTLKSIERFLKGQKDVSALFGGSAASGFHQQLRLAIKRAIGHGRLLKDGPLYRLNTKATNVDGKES
Oligonucleotide | E-score
AAGGGTGG | -0.208
GCAAGGCC | 0.0472
CTGTTTTC | 0.0358
CTCCTGTC | -0.228
ACAGGATG | -0.0936
CCTTTTAG | -0.0464
TAGTTACA | -0.0555
TATGCGGA | 0.178
ACGGCACG | 0.284
TAGGTCAA | -0.251
GTTCACCA | 0.126
ATCTCTTG | -0.165
CTCGCGAG | 0.193
AGTCTCTC | -0.128
CATTGAAG | -0.0258
GCGACTAA | -0.0204
ATCGTACA | -0.00051
GTTGTAGA | -0.117
GAACTGCA | -0.0631
CAGCCGAG | -0.00415
GGGCGTAC | 0.164
GTAAACTA | 0.0297
GGGCTCTA | -0.164
ACGTCCTA | -0.0479
ACAATTTG | -0.0354

Set 2
Target: Sal-like protein 4, full length isoform A (SALL4, Homo sapiens, UniProt Q9UJQ4, residues 1-1053)
Sequence of UniProt Q9UJQ4 (whole entry, looked up): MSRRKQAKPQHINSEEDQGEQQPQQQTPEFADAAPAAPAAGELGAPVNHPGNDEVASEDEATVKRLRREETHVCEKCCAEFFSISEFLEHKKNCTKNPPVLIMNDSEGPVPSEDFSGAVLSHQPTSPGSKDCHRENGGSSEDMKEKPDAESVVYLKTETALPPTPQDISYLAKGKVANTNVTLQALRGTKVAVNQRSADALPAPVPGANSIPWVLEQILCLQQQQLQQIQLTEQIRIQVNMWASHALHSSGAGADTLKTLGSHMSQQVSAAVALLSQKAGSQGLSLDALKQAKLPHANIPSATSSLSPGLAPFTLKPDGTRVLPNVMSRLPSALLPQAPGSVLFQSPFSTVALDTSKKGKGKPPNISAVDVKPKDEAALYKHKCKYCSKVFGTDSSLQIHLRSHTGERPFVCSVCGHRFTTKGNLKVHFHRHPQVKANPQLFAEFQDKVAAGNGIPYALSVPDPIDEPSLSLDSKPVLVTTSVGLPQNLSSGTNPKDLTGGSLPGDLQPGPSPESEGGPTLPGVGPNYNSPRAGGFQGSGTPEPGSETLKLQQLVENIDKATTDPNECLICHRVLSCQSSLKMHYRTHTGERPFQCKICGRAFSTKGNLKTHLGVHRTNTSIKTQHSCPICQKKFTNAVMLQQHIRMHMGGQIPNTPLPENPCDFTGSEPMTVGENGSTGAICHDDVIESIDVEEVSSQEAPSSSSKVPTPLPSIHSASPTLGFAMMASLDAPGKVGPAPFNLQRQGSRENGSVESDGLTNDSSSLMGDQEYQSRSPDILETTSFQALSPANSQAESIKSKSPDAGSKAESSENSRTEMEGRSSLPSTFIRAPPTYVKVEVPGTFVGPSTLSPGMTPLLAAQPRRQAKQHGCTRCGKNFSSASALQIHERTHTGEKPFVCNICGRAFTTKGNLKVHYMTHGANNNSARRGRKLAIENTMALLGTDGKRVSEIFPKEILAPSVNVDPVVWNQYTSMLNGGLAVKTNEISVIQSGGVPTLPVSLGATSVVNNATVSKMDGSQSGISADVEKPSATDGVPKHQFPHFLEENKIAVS
Technique: universal PBM
Form: double-stranded DNA, one strand shown
Medium: in vitro
Tested at: 600 nM
Notes: 8-mer, flanks averaged, mean of replicates
Direction: higher = stronger binding
Oligonucleotide | E-score
AACGGGAC | -0.294
CATACTCA | 0.182
GACGGGGA | -0.242
GTTATTGA | 0.294
CTGAGGGC | -0.321
AACGCCCC | -0.226
ATAACCCC | -0.0226
GTCGACAC | -0.0726
TACCGCGA | 0.0134
GGTGCCAC | -0.364
ACCAAGTC | -0.0166
GCCCCCGA | -0.266
AACTCAGT | 0.0187
TGCACCAA | 0.0195
CTGACCAC | -0.187
TAGTGCCA | -0.138
GTGCATTA | 0.215
GGAGAAAA | 0.0695
CAGTGGTA | -0.00855
AATGACTA | 0.165
ATTTTCAG | 0.252
CAAAGAGG | -0.204
AACGACGT | 0.0736
CTGTACGA | 0.0937
CCCAATCA | -0.0202

Set 3
Target: Fragile X messenger ribonucleoprotein 1, C-terminal low-complexity region (Fmr1, Mus musculus, UniProt P35922)
Technique: RNA Bind-n-Seq
Form: RNA
Medium: in vitro
Tested at: 200 nM
Notes: whole 134-nt RNA, ends assumed
With: 150 mM KCl
Reference: input library
Direction: higher = stronger binding
All sequences stand within: GGGAGUUCUACAGUCCGACGAUC … UGGAAUUCUCGGGUGUCAAGG
Oligonucleotide | log2 enrichment
UCCUGUGCUACACAUCGUAUGUACCGAAUCAAACCCCCCCAAACCCCCAAACCCCCAAAAAAGUAUUAUGUUACGCCGUUCGGAUCUGCA | 0.0761
AAGUCCUGUGCUACACAUCGUAUGUACCGAAUCGGGCCCCGGCCCCGGGCCCCGGGGAAAGUAUUAUGUUACGCCGUUCGGAUCUGCACU | -0.79
CCUGUGCUACACAUCGUAUGUACCGAAUCAAAUUUUUUUAAAUUUUUAAAUUUUUUUAAAAAAGUAUUAUGUUACGCCGUUCGGAUCUGC | -0.985
GCAGGAAGUAAAAACAAAUGGAAAUGCUUCGGAUAAUGGCAGGGGUGGGGGUUGCUAAGGAAAGGGUGGGAUGGGAGUGGGUAAAGAGUU | 0.142
CACAGACAACACGCACCCACACAGACACAAAAGGAAGGGGUUGGGAUGGGGACAGGGUGCACAGCAGGGCGGGGUAGGACCCCAGCCCCU | 1.2
AAGUCCUGUGCUACACAUCGUAUGUACCGAAUCGGGGUUUUGGGGUUUUGGUUUUGGAAAGUAUUAUGUUACGCCGUUCGGAUCUGCACU | -0.2
UUCAAAGCGUUCGAAUGAGGAGACUGAUGACUAUGGGAAGGCGCAGGUAGCCAAAAGCAGCAGCAAGGAAUCCAGGUCAUCCAAGCUCCA | -1.76
CACAUACAACACGCACCCACACAGACACAGAGGGAAGGGGUUGGGAUGGGGACAGGGUGCACAGCAGGGCGGGGUAGGACCCCAGCCCCU | 1.32
CCUCAAGUCCUGUGCUACACAUCGUAUGUACCGAAUCGGUGGGUGGGUGGGGAAAGUAUUAUGUUACGCCGUUCGGAUCUGCACUUCCAG | 1.22

Set 4
Target: RNA binding protein fox-1 homolog 2, RRM domain, GST-SBP tag (RBFOX2, Homo sapiens, UniProt O43251-10, residues 100-194)
Technique: RNA Bind-n-Seq
Form: RNA
Medium: in vitro
Tested at: 365 nM
Notes: natural RNA segment, single round, ends assumed
Reference: no-protein control
Direction: higher = stronger binding
All sequences stand within: GGGAGUUCUACAGUCCGACGAUC … UGGAAUUCUCGGGUGCCAA
Residues (chain): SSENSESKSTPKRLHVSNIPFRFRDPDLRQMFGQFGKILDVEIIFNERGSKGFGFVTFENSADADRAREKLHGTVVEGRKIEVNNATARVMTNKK
Oligonucleotide | RBNS enrichment (R)
GACAGCAUCAGGUGGGAAAGUGGAGUCCACCCUCAUGUUUCUGUAGGAUUCUCACCGUGGGGCUGGAAGAAAAGAGCAUCGACUUGAUUUCUCCAACCACUCAUCCCUCU | 0.459
CCCCUUCUCUCCUCCUCUGCCUCACUUCUUUAGUAAUCCCAACCCUAUAAAAAUGAACCUAAUGGGUGGAUUGAAUAUACAUUGAGCCCAAAGUCAAGUUUGGGGAAAAG | 0.472
UCUUUUUUUGCUGCCUUGCUUGAGUUGCUUGUGACUGAUCUUUUGAGGCUGUCAUCAUGGCUAGGGUUCUUUUAUGUAUGUUAAAUUAAAACCUGAAUUCAGAGGUAACG | 7.38
GGAGGUGGCCCUGCCGGCUCCGCGCUGCUGUGCCUGUGAUCCCUACCUGCUCCCCGCUCCUGUUGCCAGCAGCACUCACUGCACUCCUUUGUCAUAUACUCUGCAUCACU | 1.35
CGAGAGACUUGGUUGAACUUGGUUGGUCCUUGUCUGCACCCUCGACAAGACCACACUUUGGGACUUGGGAGCUGGGGCUGAAGUUGCUCUGUACCCAUGAACUCCCAGUU | 1.43
UCCAGCCGUGCUUGGCCUCAGGGCUGGCAGCCGGAUCCUGGGGCAACCCAUCUGGUCUCUUGAAUAAGGUCAAAGCUGGAUUCUCGCCAUGGCCUCCGUCUCACAUCUAA | 0.282
ACAAAUCUUGUGGAAAUCCGAUAUGUUUUAAUGUGGCUACCUAGGUUUAAGGUUCACGUUAGUCCCCCCAUUCCAUCUAGAAGUCCAUUUUGAAAGAUUUUUGUAAAUUC | 0.298
CAGGCUGCUGAGGAGCAGAGGCCAGACCAGGGCCGAUCUGGGUGUCCUGACCCUCAGCUGGCCCUGCCCAGCCACCCUGGACGUGACCGUAUCCCUCUGCCACACCCCAG | 0.16

For quick reference, copied from above (set 3):
Oligonucleotide | log2 enrichment
UCCUGUGCUACACAUCGUAUGUACCGAAUCAAACCCCCCCAAACCCCCAAACCCCCAAAAAAGUAUUAUGUUACGCCGUUCGGAUCUGCA | 0.0761
AAGUCCUGUGCUACACAUCGUAUGUACCGAAUCGGGCCCCGGCCCCGGGCCCCGGGGAAAGUAUUAUGUUACGCCGUUCGGAUCUGCACU | -0.79
CCUGUGCUACACAUCGUAUGUACCGAAUCAAAUUUUUUUAAAUUUUUAAAUUUUUUUAAAAAAGUAUUAUGUUACGCCGUUCGGAUCUGC | -0.985
GCAGGAAGUAAAAACAAAUGGAAAUGCUUCGGAUAAUGGCAGGGGUGGGGGUUGCUAAGGAAAGGGUGGGAUGGGAGUGGGUAAAGAGUU | 0.142
CACAGACAACACGCACCCACACAGACACAAAAGGAAGGGGUUGGGAUGGGGACAGGGUGCACAGCAGGGCGGGGUAGGACCCCAGCCCCU | 1.2
AAGUCCUGUGCUACACAUCGUAUGUACCGAAUCGGGGUUUUGGGGUUUUGGUUUUGGAAAGUAUUAUGUUACGCCGUUCGGAUCUGCACU | -0.2
UUCAAAGCGUUCGAAUGAGGAGACUGAUGACUAUGGGAAGGCGCAGGUAGCCAAAAGCAGCAGCAAGGAAUCCAGGUCAUCCAAGCUCCA | -1.76
CACAUACAACACGCACCCACACAGACACAGAGGGAAGGGGUUGGGAUGGGGACAGGGUGCACAGCAGGGCGGGGUAGGACCCCAGCCCCU | 1.32
CCUCAAGUCCUGUGCUACACAUCGUAUGUACCGAAUCGGUGGGUGGGUGGGGAAAGUAUUAUGUUACGCCGUUCGGAUCUGCACUUCCAG | 1.22
